Experimental data gathered from unrelated publications.
Parts stem from different laboratories: compare values within a part only.

Set 1
Target: Centromere-binding protein 1, full length, His-tagged (CBF1, Saccharomyces cerevisiae, UniProt P17106, residues 1-351)
Chain of UniProt P17106 (whole entry, looked up): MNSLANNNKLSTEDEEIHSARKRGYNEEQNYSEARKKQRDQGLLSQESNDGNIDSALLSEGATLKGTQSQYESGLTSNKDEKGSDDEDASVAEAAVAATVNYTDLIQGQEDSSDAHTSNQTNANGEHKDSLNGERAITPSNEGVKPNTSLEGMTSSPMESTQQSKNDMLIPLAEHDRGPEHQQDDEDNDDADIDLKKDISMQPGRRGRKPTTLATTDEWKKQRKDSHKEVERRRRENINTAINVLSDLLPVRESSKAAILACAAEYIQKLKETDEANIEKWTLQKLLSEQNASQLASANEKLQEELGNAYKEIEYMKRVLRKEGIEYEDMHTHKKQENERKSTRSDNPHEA
Technique: competition protein-binding microarray
Form: double-stranded DNA, one strand shown
Matrix: in vitro
Tested at: 2 µM
Setting: whole 60-bp probe, lowest competitor level
With: Pho4 competitor, 0.05 µM
Direction: higher = stronger binding
With `CGAAAGAGAGGTTGCCACGTTTTCCCGACGGCTGCTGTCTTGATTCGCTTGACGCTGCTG` the fluorescence intensity was 82.9 a.u.
For `AAGTTCCTACCACAACGCGTGTGAATGATCTTGTACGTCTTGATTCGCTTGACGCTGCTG`, the fluorescence intensity was 87.5 a.u.
`TGTCTTTCACCTTGTCACGGGCGCTTAGCTCCAATTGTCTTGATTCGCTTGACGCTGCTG` gave a fluorescence intensity of 165 a.u.
For `TCCAGAATATAATAATATCGTATGGACCATCTCGCTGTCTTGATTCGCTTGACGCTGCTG`, the fluorescence intensity was 79 a.u.
For `CGTCCTAGTGATTGGTGAGTGGGTGCCATGAGGAAGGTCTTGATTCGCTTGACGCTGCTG`, the fluorescence intensity was 95.8 a.u.
With `CTCCACCTCGACCATCACGTCCACTTTGCTGCTAACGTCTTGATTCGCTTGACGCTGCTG` the fluorescence intensity was 78 a.u.
`CGCCATCTTGGGCCCCGCGTGTTCCCGCCTTAGCGGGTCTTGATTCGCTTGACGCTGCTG` gave a fluorescence intensity of 61 a.u.
For `CTTTCCCGATCTTGAAAGGTGGGTGTAGCACATTTGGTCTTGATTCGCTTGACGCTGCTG`, the fluorescence intensity was 62.2 a.u.
`AAAGAACCGTTTTAGCACGTGTTGATTGTCCATTTAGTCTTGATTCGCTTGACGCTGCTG` has a fluorescence intensity of 1460 a.u.
`GAACTTGAAGCACTTCACGTGCCGATCCTGCGCTCAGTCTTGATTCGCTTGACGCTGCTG` gave a fluorescence intensity of 720 a.u.
The fluorescence intensity of `GGTCCAGCCTCGAAACTCGTGACGGCATTTGAGGTGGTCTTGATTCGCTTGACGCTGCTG` is reported as 408 a.u.
`TGATGAGGACACCGACACGTGCAAACATGGTAGTGCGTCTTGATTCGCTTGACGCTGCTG` gave a fluorescence intensity of 1070 a.u.
`TTAAGAGATAATCCGCACGTGATGGAATTCATTCTGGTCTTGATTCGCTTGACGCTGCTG` gave a fluorescence intensity of 3660 a.u.
With `GTCCGCCATGTCCAACACGTTGCTGGCCGCAAAACGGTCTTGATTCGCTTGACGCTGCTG` the fluorescence intensity was 72.7 a.u.
`TTGGTGTGGGTAAAACACGTGAATAAGAAACTGTATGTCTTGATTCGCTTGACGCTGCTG` has a fluorescence intensity of 1490 a.u.
The fluorescence intensity of `GATTTTTTCAAATGGCACATGCTTCGGAAAAATGATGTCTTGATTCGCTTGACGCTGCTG` is reported as 290 a.u.
For `AAAGTTTTCAACCTCCACGTGTTCCTTAGTTTCCCTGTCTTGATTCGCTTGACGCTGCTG`, the fluorescence intensity was 921 a.u.
`TGAGTTGTCTTCCATGTCGTGCTTTGTAATTCCTCAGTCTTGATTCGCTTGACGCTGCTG` gave a fluorescence intensity of 90.1 a.u.

Set 2
Target: UBE2V2 UBC core domain (UniProt Q15819)
Technique: yeast two-hybrid
Matrix: yeast
Setting: mostly zero background
Reference: not given
Direction: higher = stronger interaction
B1: TRIM22 RING domain (UniProt Q8IYM9); chain KEVKMSPQEGQKRDVCEHHGKKLQIFCKEDGKVICWVCELSQEHQGHQTFRINEVVKECQEK
B2: TRIM48 RING domain (UniProt Q8IWZ4); chain ISQVFQRELTCPICMNYFIDPVTIDCGHSFCRPCFYLNWQDIPILTQCFECIKTIQQRNLKT
B3: RNF24 RING domain (UniProt Q9Y225); chain KVKELNLHELCAVCLEDFKPRDELGICPCKHAFHRKCLIKWLEVRKVCPLCNMPVLQLAQLH
B4: Ltn1 RING domain (UniProt Q6A009); chain VDKRFEGVEDCMICFSVIHGFNYSLPKKACRTCKKKFHSACLYKWFTSSNKSTCPLCRETFF
B5: PRKN RING domain (UniProt O60260); chain LIATNSRNITCITCTDVRSPVLVFQCNSRHVICLDCFHLYCVTRLNDRQFVHDPQLGYSLPCVAGCPNSLIKELHH
B6: RNF135 RING domain (UniProt Q8IUD6); chain PVWLAEDDLGCIICQGLLDWPATLPCGHSFCRHCLEALWGARDARRWACPTCRQGAAQQPHLR
B7: DTX1 RING domain (UniProt Q86Y01); chain QKVKNPPDEDCTICMERLVTASGYEGVLRHKGVRPELVGRLGRCGHMYHLLCLVAMYSNGNKDGSLQCPTCKAIYGEKTGTQ
B8: ZNRF3 RING domain (UniProt Q9ULT6); chain DTLSSSSTSDCAICLEKYIDGEELRVIPCTHRFHRKCVDPWLLQHHTCPHCRHNIIEQKGNP
Target sequence (chain): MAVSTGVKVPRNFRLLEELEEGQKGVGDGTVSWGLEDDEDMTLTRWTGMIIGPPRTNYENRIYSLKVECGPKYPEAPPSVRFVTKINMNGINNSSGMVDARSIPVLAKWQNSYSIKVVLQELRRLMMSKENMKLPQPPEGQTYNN
Under “lacZ reporter activity”, `KEQLEKHNDICAICYQDMKSAVITPCSHFFHAGCLKKWLYVQETCPLCHCHLKNSSQLP (RNF145 RING domain (UniProt Q96MT1))` is recorded as 0.
For `B1 (TRIM22 RING domain)`, “lacZ reporter activity” read 0.
`B2 (TRIM48 RING domain)` — result for “lacZ reporter activity”: 0.
Under “lacZ reporter activity”, `MDDQGCPRCKTTKYRNPSLKLMVNVCGHTLCESCVDLLFVRGAGNCPECGTPLRKSNFRV (MNAT1 RING domain (UniProt P51948))` is recorded as 0.
Under “lacZ reporter activity”, `B3 (RNF24 RING domain)` is recorded as 0.
For `QLRRLQEERTCKVCLDRAVSIVFVPCGHLVCAECAPGLQLCPICRAPVRSRVRTF (BIRC7 RING domain (UniProt Q96CA5))`, “lacZ reporter activity” read 0.
For `B4 (Ltn1 RING domain)`, “lacZ reporter activity” read 0.
`B5 (PRKN RING domain)` — result for “lacZ reporter activity”: 0.
`B6 (RNF135 RING domain)` — result for “lacZ reporter activity”: 0.
For `B7 (DTX1 RING domain)`, “lacZ reporter activity” read 0.
`B8 (ZNRF3 RING domain)`: “lacZ reporter activity” 0.
Under “lacZ reporter activity”, `ALDRLEKLLRCSRCTNILREPVCLGGCEHIFCSNCVSDCIGTGCPVCYTPAWIQDLKI (BARD1 RING domain (UniProt Q99728))` is recorded as 0.

Set 3
Target: RNA binding protein fox-1 homolog 2, RRM domain, GST-SBP tag (RBFOX2, Homo sapiens, UniProt O43251-10, residues 100-194)
Technique: RNA Bind-n-Seq
Form: RNA
Matrix: in vitro
Tested at: 365 nM
Setting: natural RNA segment, single round, ends assumed
Reference: no-protein control
Direction: higher = stronger binding
Construct (chain): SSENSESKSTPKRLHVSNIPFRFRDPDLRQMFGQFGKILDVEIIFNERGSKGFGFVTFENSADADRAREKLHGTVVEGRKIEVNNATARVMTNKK
Under “RBNS enrichment (R)”, `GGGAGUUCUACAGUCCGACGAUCCUAUGCUCUACCCCCAGGGUAGCAUCUCAGCUUCCGAACCCUGGGCUGUUUCCUUAGUCUUCAUUUUAUAAAAGUUGUUGCCUUUUUAACGGAGUGUCACUUUCAACCGGUGGAAUUCUCGGGUGCCAA` is recorded as 0.541.
`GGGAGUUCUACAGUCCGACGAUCUGGUUAAUUAAAACUGUGAAUUUUUGUGUAACUAGUUUCAGAGUGUUAUUAAAUAUGAUAAAAUGCAGUAAGUCUUUUGGUCUCCUGUCUCAUUUUGAACAUGGUUCACGUGGAAUUCUCGGGUGCCAA`: “RBNS enrichment (R)” 0.379.
`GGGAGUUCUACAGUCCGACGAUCGGUCAACACUUCCUGCUGCAUUUCCUUCCCUUUGCACAGCUUGAAGAAAUAGAGUAGACAGAAUCACACAUCAUGUGGUGGGCAGAUGGAAAUAAGUACCUGUGGUGAACUGGAAUUCUCGGGUGCCAA` — result for “RBNS enrichment (R)”: 0.903.
`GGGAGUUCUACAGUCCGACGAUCUGUGCUUUCUUAAUGUGUGUGCCAAUGGUGGAUCUUUGCUACUGAAUGUGUUUGAACAUGUUUUGAGAUUUUUUUAAAAUAAAUUAUUAUUUGACAACAAUCCAAAAAAAUGGAAUUCUCGGGUGCCAA` — result for “RBNS enrichment (R)”: 1.5.
Under “RBNS enrichment (R)”, `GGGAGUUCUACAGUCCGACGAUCCCUCCCCUGCAGAAAAUAAGCACAGAAAAUUAUAAUGUAGGUGAUCGGAGCUCUUUCCUUUGAUAGAGAGAACAGCCCCAAUGAUCCUGGCUUUUUCACUGAACGUAUCAUGGAAUUCUCGGGUGCCAA` is recorded as 0.564.
`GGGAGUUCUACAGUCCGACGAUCAAGAAGCUUCCUGCAAUGCCCAGGAGCAUCCCACAGGCAAUAGAGUACCAAUAUGGUAGACCUCUUUCACAGUCAAUCUCAGCCCUGGAAAUUAUGUUCUACUAUGCUCAUGGAAUUCUCGGGUGCCAA`: “RBNS enrichment (R)” 0.303.
`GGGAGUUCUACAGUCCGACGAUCGUAUGAUCUAUUUUAUGUGCUCUAUGUUCCCAUUUGUUUGUUUGGUCUGGACAGUGGUUCUGGAAUGAAUUCUAUCUAGUAAAUUAGUAAAUGUGCUGUUUUGUAUAAAGUGGAAUUCUCGGGUGCCAA` — result for “RBNS enrichment (R)”: 1.12.
`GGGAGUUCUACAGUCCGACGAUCGGAGACUCAGAGAUAUAGAAAGCAGCUGAAAUUUAAGGGAGAUAAAGCCUGCACUGCACCAAAGCUACGGGUCCCUGUGUUUCCUCUAUUCAGUGAUGUCAUCAACCUCAUGGAAUUCUCGGGUGCCAA` — result for “RBNS enrichment (R)”: 0.441.
For `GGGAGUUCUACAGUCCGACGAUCUCUUAUGUACUAUCCAAAAGUGCCAGAAUGACUCUUCUGUGCAUUCUUCUUAAAGAGCUGCUUGGUUAUCCAAAAAUGAAAAUUCAAAAUAAACUCUGAAGAAAAGGAAAUGGAAUUCUCGGGUGCCAA`, “RBNS enrichment (R)” read 0.733.

Set 4
Target: Interferon regulatory factor 5, full length, phosphomimetic (IRF5, Homo sapiens, UniProt Q13568-2, residues 1-514, K96S/S451D/S453D/S456D/S462D)
Technique: protein-binding microarray
Form: double-stranded DNA, one strand shown
Matrix: in vitro
Tested at: 250 nM
Setting: 60-bp whole probe
With: salmon DNA 0.4 mg/ml
Reference: random background probes
Direction: higher = stronger binding
All sequences stand within: GCCTAGCAC … GTCTTGATTCGCTTGACGCTGCTG
For `CTCTCATTCCAATTCTTTTTGTGCTAG`, the log fluorescence was 0.897 z-score.
With `TTAGGACTTGGTTTCGGTTAGTGCTAG` the log fluorescence was 9.61 z-score.
`GACGGTATCCTCCTGCTGACGTGCTAG` has a log fluorescence of -0.256 z-score.
For `GACGGTATCCGACTGGGGACGTGCTAG`, the log fluorescence was -0.257 z-score.
The log fluorescence of `TTAGGTTTCCTAGTGCTTTAGTGCTAG` is reported as 0.377 z-score.
The log fluorescence of `GATGGGCTACCTCTCTTAGAGTGCTAG` is reported as -0.481 z-score.
`CAGCGCGCAGCTGCCAGAACGTGCTAG` gave a log fluorescence of -0.901 z-score.
For `TCAGGCCTCTTCATTCATACTGTGCTA`, the log fluorescence was 0.395 z-score.
`TTAGGACTGCTTTTCCTATAGTGCTAG` has a log fluorescence of 0.318 z-score.
For `GACGAACTGGGGTTTTGAGACGTGCTA`, the log fluorescence was -0.286 z-score.
With `GACGGACTGGGGTAGCGGGACGTGCTA` the log fluorescence was -0.476 z-score.
With `GAGGGACTGCTACTGCTGACGTGCTAG` the log fluorescence was -0.629 z-score.
With `GACGGACTGGCTTTCGGGACGTGCTAG` the log fluorescence was 2.72 z-score.
For `GACGATTTCAAACTGGAGACGTGCTAG`, the log fluorescence was -0.0833 z-score.
For `TTAGGTATCGGGTATCGGTTTGTGCTA`, the log fluorescence was 6.38 z-score.
The log fluorescence of `GTCGGACTGGGGACTGGGGACGTGCTA` is reported as -0.303 z-score.
`TTAGGTCTCCTACTGCTTCAGTGCTAG` has a log fluorescence of -0.285 z-score.
For `GACGATAGCAGACTGGAGACGTGCTAG`, the log fluorescence was 0.495 z-score.

Excerpt of the above (set 4):
`TTAGGACTGCTTTTCCTATAGTGCTAG` has a log fluorescence of 0.318 z-score.
For `GACGGTATCCGACTGGGGACGTGCTAG`, the log fluorescence was -0.257 z-score.
With `GACGGACTGGGGTAGCGGGACGTGCTA` the log fluorescence was -0.476 z-score.
